Published values gathered from unrelated publications.

| SMILES | tested on | test | system | conditions | quantity | result |
| --- | --- | --- | --- | --- | --- | --- |
| CC1OC(OC2C(CO)OC(OC3CCC4(C)C(CCC5(C)C4CC=C4C6CC(C)(C)CCC6(C(=O)OC6CCCC6)CCC45C)C3(C)C)C(OC3OC(C)C(O)C(O)C3O)C2O)C(O)C(O)C1O (stereo not shown) | Severe acute respiratory syndrome coronavirus 2 | viral replication | 293T/ACE2 | 20 µM | inhibition | 67.8% |
| CC(=O)OC1(C)CC(C=C(C)CCC=C(C)C)OC2(C=C(CO)C3CC(=O)C(C)=CC3O2)C1 (stereo not shown) | Severe acute respiratory syndrome coronavirus 2 | viral replication | Calu-3 | 50 µM | inhibition | 91% |
| CCCCCCCCCC1O[C@@H]2C[C@H]3[C@@H]4CCC5=CC(=O)C=C[C@]5(C)[C@H]4[C@@H](O)C[C@]3(C)[C@]2(C(=O)CO)O1 (stereo partly shown) | Severe acute respiratory syndrome coronavirus 2 | viral replication, inhibitor | VeroE6/TMPRSS2 | 24 h | IC50 | 6.9 µM |
| Cc1ccc(N2CC3CC(C2)N3C)cc1C(=O)NC1(c2ccc3c4c(cccc24)C(=O)N3C)CC1 | Severe acute respiratory syndrome coronavirus 2 | viral replication | Vero C1008 | 12.5 µM | inhibition | 100% |
| CCCCCCC1O[C@@H]2C[C@H]3[C@@H]4CCC5=CC(=O)C=C[C@]5(C)[C@H]4[C@@H](O)C[C@]3(C)[C@]2(C(=O)CO)O1 (stereo partly shown) | Severe acute respiratory syndrome coronavirus 2 | viral replication, inhibitor | Calu-3 |  | IC50 | 10.9 µM |
| CC(=O)OCC1OC(OC2CCC3(C)C(CCC4(C)C3CC=C3C5CC(C)(C)CCC5(C(=O)O)CCC34C)C2(C)C)C(OC2OC(C)C(OC(C)=O)C(OC(C)=O)C2OC(C)=O)C(OC(C)=O)C1OC1OC(C)C(OC(C)=O)C(OC(C)=O)C1OC(C)=O (stereo not shown) | Severe acute respiratory syndrome coronavirus 2 | viral replication | 293T/ACE2 | 20 µM | inhibition | 48.2% |
| C[C@]12C=CC(=O)C=C1CC[C@@H]1[C@@H]2[C@@H](O)C[C@@]2(C)[C@H]1C[C@H]1OC(c3ccccc3Cl)O[C@]12C(=O)CO (stereo partly shown) | Severe acute respiratory syndrome coronavirus 2 | viral replication, inhibitor | VeroE6/TMPRSS2 | 24 h | IC50 | 9.1 µM |
| O=C(O[C@@H]1Cc2c(O)cc(O)cc2O[C@@H]1c1cc(O)c(O)c(O)c1)c1cc(O)c(O)c(O)c1 | Severe acute respiratory syndrome coronavirus 2 | antiviral activity | Huh-7 | 96 h | EC50 | > 100 µM |
| CCCCCCCCCCCCCCCC(=O)N[C@@H](CCC(=O)NCCOCCOCCC(=O)NCCOCCOCCC(=O)NCCCC[C@H](NC(=O)[C@H](CC(=O)O)NC(=O)[C@H](CC(C)C)NC(=O)[C@H](Cc1ccc(O)cc1)NC(=O)[C@H](CCCCN)NC(=O)[C@H](CO)NC(=O)[C@H](Cc1ccc(O)cc1)NC(=O)[C@H](CC(=O)O)NC(=O)[C@H](CO)NC(=O)[C@@H](NC(=O)[C@H](Cc1ccccc1)NC(=O)[C@@H](NC(=O)CNC(=O)[C@H](CCC(N)=O)NC(=O)[C@@H](CO)NC(=O)[C@@H](N)Cc1c[nH]cn1)[C@@H](C)O)[C@@H](C)O)C(=O)N[C@@H](CCCNC(=N)N)C(=O)N[C@@H](CCCNC(=N)N)C(=O)N[C@@H](C)C(=O)N[C@@H](CCC(N)=O)C(=O)N[C@@H](CC(=O)O)C(=O)N[C@@H](Cc1ccccc1)C(=O)N[C@H](C(=O)N[C@@H](CCC(N)=O)C(=O)N[C@@H](Cc1c[nH]c2ccccc12)C(=O)N[C@@H](CC(C)C)C(=O)N[C@@H](CC(C)C)C(=O)N[C@@H](CC(N)=O)C(=O)N[C@H](C(=O)NCC(=O)NCC(=O)N1CCC[C@H]1C(=O)N[C@@H](CO)C(=O)N[C@@H](CO)C(=O)NCC(=O)N[C@@H](C)C(=O)N1CCC[C@H]1C(=O)N1CCC[C@H]1C(=O)N1CCC[C@H]1C(=O)N[C@@H](CO)C(N)=O)[C@@H](C)O)C(C)C)C(=O)O |  |  | rhesus monkey, male, plasma | subcutaneous, 300 µg/kg, day 28, toxicokinetics, mean | AUC(0-t) | 2890 ng·h/mL |
| COCCOCCOCC1O[C@@H]2C[C@H]3[C@@H]4CCC5=CC(=O)C=C[C@]5(C)[C@H]4[C@@H](O)C[C@]3(C)[C@]2(C(=O)CO)O1 (stereo partly shown) | Severe acute respiratory syndrome coronavirus 2 | viral replication, inhibitor | VeroE6/TMPRSS2 | 24 h | IC50 | > 30 µM |
| COC(=O)c1cc2c(=O)n3ccccc3nc2n1Cc1ccccc1 | Severe acute respiratory syndrome coronavirus 2 | viral replication | Vero | 1 µM | inhibition | 62.3% |
| C=CCOC(=O)C12CCC(C)(C)CC1C1=CCC3C4(C)CCC(OC5OC(COC(=O)c6ccccc6)C(OC(=O)c6ccccc6)C(OC(=O)c6ccccc6)C5OC(=O)c5ccccc5)C(C)(C)C4CCC3(C)C1(C)CC2 (stereo not shown) | Severe acute respiratory syndrome coronavirus 2 | viral replication | 293T/ACE2 | 20 µM | inhibition | 33% |
| O=C(C=Cc1ccc(O)c(O)c1)OC1CC(O)(C(=O)O)CC(OC(=O)C=Cc2ccc(O)c(O)c2)C1O (stereo not shown) | Severe acute respiratory syndrome coronavirus 2 | cytopathic effect | Vero C1008 | 12.5 µM | inhibition | 0% |
